Measured values of several laboratories.
A part holds a random share of what one study measured. Positions count from the first letter of the parent shown.

Series 1
Target: CRIPT, C-terminal peptide
Method: DHFR complementation, deep sequencing
Medium: yeast
Notes: single substitutions, model-inferred values
Baseline: wild type
Reading: higher = weaker binding
Starting sequence: ERBIN, PDZ domain 1 (human); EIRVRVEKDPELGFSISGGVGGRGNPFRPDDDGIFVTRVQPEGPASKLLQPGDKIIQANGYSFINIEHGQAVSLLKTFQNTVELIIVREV; partner TKNYKQTSV
| Change | binding free energy change [kcal/mol] |
| --- | --- |
| E67W | 0.457 |
| Q50Y | 0.0455 |
| D53R | 0.925 |
| Q57G | -0.22 |
| E67G | 0.0103 |
| G33R | 1.21 |
| P29G | 0.144 |
| I16W | 1.34 |

Series 2
Target: CCND2, cyclin fold, Cln2 fusion (human)
Method: yeast growth competition, sequencing
Medium: yeast
Notes: strong parent motif
Baseline: not given
Reading: higher = stronger binding
Starting sequence: INSM1 docking peptide (human); PKAIRKLHFEDEV; partner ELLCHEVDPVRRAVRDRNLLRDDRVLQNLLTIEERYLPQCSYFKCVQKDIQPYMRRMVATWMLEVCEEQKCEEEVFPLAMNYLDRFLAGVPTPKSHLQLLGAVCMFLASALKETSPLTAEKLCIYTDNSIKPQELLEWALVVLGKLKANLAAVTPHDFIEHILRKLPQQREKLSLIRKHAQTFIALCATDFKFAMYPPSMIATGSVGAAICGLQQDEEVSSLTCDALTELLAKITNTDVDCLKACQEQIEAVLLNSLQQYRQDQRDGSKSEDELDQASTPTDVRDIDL
| Change | normalised enrichment score |
| --- | --- |
| PKFIRKLHFEDEV [A3F] | -0.0882 |
| PKAIRKLNFEDEV [H8N] | 3.55 |
| PKAIRKLHFEDSV [E12S] | 1.87 |
| PKAIRKLHVEDEV [F9V] | -0.097 |
| PPAIRKLHFEDEV [K2P] | 1.36 |
| PKAIRMLHFEDEV [K6M] | 1.4 |
| PKAVRKLHFEDEV [I4V] | 1.36 |
| PKAIRKLHREDEV [F9R] | 0.0851 |

Series 3
Target: Probable WRKY transcription factor 33, N-terminal DNA-binding domain (WRKY33, Arabidopsis thaliana, UniProt Q8S8P5, residues 169-264)
Method: DNA-protein interaction ELISA
Molecule type: double-stranded DNA, one strand shown
Medium: in vitro, bacterial lysate
Tested at: not given
Notes: whole dsDNA probe, crude lysate protein
Baseline: highest signal in screen
Reading: higher = stronger binding
Residues (chain): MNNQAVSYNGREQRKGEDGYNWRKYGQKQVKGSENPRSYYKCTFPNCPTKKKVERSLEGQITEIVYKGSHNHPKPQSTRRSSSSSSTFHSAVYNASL
| Oligonucleotide | relative absorbance |
| --- | --- |
| AAAAAACCCTAACGAATGCTTTTCGGAAAA | 22.4 % of maximum |
| AAAAAAAGGGTGCTATTCGTCGACACAAAA | 21.5 % of maximum |
| AAAAAAAAGGACATTTTTTCTTTTTGAAAA | 25.6 % of maximum |
| AAAAAATCTAGGGGTACCTATTTGGCAAAA | 25 % of maximum |
| AAAAAAACATCCACACCCGCGGCGCGAAAA | 19.1 % of maximum |

Mixed results
| Structure (SMILES) | cell line | method | tested at | notes | baseline | measurement | result |
| --- | --- | --- | --- | --- | --- | --- | --- |
| Cn1nc(C(=O)NCc2ccc(C(=O)O)cc2)cc1-c1ccc2[nH]ccc2c1 | sample D normal colon organoid | CellTiter-Glo | 1 µM | mean of replicates | DMSO | viability | 131% |

Excerpt of the above (series 2):
| Change | normalised enrichment score |
| --- | --- |
| PKAIRKLNFEDEV [H8N] | 3.55 |
| PKAIRKLHFEDSV [E12S] | 1.87 |
